Results gathered from unrelated publications.
A part holds a random share of what one study measured. Values joined by “and” are separate records of one study, mostly repeats; a detail may differ.
Sequence of UniProt Q8N4C8 (whole entry, looked up): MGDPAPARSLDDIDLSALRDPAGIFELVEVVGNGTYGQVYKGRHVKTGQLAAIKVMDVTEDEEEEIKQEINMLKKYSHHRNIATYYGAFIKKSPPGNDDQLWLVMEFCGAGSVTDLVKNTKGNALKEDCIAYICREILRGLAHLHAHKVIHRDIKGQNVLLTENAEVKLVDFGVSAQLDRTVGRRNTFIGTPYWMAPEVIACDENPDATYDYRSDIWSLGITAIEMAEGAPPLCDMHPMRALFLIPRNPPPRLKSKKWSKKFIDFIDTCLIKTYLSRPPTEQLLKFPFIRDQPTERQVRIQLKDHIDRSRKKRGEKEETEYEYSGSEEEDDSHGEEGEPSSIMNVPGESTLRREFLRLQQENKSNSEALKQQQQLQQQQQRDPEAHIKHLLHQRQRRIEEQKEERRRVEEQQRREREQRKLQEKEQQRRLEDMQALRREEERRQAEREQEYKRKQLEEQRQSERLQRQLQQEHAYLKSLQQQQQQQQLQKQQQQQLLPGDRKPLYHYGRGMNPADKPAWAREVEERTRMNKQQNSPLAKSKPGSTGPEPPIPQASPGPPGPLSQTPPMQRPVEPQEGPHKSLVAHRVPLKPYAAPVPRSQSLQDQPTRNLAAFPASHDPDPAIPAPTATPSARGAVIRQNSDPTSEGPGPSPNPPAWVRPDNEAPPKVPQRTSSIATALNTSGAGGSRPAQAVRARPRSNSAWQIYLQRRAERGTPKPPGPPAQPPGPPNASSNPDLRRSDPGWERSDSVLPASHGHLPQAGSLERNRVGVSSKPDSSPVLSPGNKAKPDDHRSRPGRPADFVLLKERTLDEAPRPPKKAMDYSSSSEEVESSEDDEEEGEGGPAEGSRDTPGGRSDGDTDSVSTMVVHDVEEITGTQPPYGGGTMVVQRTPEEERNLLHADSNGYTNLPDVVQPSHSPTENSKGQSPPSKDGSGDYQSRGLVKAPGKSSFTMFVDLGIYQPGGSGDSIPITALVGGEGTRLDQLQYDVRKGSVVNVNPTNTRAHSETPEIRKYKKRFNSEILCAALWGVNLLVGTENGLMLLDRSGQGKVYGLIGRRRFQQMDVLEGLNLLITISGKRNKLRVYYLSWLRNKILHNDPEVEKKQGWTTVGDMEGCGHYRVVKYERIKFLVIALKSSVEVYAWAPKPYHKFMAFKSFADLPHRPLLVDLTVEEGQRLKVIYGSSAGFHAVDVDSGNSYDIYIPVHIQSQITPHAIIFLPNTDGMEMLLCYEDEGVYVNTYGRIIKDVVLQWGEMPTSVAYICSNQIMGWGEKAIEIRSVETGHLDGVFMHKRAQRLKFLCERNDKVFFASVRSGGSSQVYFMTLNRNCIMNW
Sequence of UniProt Q02750 (whole entry, looked up): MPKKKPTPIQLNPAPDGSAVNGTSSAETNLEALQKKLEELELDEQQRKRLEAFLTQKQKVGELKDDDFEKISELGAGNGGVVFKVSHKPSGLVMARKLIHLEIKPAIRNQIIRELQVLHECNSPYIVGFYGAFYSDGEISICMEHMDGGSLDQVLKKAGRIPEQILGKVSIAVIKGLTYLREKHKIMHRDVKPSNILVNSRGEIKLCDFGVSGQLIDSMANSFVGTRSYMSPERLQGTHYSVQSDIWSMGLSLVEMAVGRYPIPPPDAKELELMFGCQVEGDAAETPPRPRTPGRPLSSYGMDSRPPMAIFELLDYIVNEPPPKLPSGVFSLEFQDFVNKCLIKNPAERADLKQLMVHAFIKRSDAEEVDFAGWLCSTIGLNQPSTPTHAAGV
Sequence of UniProt Q86UE8 (whole entry, looked up): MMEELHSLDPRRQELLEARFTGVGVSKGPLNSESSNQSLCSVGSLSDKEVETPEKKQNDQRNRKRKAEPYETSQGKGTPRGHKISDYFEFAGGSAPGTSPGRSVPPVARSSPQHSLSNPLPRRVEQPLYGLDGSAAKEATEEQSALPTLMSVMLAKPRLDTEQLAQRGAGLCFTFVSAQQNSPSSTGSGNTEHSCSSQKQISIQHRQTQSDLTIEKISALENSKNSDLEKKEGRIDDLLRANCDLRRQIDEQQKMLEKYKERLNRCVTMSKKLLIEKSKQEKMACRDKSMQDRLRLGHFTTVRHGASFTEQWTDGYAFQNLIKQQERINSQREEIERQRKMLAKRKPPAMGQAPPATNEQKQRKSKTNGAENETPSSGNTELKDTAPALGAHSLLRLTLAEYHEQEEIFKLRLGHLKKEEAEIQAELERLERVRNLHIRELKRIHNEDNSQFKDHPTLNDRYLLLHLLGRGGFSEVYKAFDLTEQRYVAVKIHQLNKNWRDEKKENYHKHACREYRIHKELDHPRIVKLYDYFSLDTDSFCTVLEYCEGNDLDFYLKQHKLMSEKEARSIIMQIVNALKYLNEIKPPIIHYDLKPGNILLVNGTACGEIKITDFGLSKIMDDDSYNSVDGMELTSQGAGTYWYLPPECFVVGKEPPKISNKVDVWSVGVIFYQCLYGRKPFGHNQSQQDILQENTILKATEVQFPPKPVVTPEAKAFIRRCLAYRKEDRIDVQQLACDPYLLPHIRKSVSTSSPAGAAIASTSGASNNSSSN
Sequence of UniProt P31749 (whole entry, looked up): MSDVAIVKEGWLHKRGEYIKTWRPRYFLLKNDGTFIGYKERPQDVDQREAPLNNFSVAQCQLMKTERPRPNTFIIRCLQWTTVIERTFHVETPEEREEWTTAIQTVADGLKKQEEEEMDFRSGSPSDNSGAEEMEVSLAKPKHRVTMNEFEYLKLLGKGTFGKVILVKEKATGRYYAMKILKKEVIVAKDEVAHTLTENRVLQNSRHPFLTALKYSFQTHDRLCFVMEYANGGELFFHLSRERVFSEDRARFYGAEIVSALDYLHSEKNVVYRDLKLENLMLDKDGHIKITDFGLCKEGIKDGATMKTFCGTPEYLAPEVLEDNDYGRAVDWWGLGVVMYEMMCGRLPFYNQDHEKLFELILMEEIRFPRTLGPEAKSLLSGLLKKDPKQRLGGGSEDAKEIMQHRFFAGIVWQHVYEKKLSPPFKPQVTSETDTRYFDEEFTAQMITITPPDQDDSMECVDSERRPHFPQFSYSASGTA
Sequence of UniProt Q9C098 (whole entry, looked up): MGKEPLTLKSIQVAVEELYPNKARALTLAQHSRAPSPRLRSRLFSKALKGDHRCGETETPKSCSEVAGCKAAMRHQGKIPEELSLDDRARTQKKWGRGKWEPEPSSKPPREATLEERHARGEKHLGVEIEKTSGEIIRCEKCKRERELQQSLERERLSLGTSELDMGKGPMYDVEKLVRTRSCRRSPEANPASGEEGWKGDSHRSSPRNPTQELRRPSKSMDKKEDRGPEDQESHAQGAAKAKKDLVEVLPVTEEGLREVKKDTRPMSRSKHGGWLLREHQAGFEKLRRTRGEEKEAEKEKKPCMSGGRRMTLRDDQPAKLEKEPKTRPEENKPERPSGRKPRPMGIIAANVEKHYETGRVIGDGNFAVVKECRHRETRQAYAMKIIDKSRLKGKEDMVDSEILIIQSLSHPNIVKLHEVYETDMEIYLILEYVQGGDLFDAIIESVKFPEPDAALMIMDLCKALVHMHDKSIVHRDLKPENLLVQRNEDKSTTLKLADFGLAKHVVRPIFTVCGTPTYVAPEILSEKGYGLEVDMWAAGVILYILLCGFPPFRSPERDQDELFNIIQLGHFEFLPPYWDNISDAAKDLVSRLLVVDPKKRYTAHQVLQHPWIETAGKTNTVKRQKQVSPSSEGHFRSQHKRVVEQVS
Sequence of UniProt Q8N568 (whole entry, looked up): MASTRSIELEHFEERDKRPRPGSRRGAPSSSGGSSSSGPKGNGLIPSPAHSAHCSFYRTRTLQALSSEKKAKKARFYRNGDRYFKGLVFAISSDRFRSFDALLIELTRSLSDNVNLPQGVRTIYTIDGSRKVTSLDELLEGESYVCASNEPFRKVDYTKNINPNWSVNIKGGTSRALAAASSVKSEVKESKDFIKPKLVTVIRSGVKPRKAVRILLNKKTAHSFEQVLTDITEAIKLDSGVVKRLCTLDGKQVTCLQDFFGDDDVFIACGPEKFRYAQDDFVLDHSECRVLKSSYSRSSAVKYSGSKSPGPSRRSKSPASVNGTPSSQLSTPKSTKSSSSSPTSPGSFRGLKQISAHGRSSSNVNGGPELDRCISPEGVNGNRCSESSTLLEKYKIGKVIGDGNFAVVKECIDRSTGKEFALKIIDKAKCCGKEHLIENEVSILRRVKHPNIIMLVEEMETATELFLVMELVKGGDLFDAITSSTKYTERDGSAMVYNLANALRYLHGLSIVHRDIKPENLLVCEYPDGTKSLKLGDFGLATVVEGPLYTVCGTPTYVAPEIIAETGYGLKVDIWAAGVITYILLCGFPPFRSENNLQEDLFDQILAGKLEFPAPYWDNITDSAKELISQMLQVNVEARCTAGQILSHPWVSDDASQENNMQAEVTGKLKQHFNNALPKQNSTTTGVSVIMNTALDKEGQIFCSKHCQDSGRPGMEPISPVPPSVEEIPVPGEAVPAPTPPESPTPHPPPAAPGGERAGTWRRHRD
Sequence of UniProt P42681 (whole entry, looked up): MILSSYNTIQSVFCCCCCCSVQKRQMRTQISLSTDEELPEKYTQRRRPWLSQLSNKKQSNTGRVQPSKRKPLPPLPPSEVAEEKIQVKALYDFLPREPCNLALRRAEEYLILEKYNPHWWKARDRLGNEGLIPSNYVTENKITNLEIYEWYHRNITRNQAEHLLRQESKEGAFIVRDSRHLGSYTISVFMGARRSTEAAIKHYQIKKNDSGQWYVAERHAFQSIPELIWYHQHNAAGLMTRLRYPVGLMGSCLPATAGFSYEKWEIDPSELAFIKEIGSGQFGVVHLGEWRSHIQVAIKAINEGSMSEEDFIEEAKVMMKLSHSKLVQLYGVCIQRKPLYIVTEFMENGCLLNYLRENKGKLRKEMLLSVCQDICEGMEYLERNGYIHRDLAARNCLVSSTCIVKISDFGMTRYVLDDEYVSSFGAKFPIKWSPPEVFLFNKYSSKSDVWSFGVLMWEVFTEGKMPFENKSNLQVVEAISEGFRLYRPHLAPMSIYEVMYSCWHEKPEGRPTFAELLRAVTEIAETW

Sample 1
SMILES: Cc1c(NC(=O)c2cc(C(N)=O)nc3cc(F)ccc23)c(C(F)(F)F)nn1Cc1ccc(C(C)(C)C)cc1
Read-out: cell-free assay
Technique: competition with immobilised ligand
Tested at: 1 µM
target	remaining binding [%]
BMX (Homo sapiens, UniProt P51813)	88
ROCK1 (Homo sapiens, UniProt Q13464)	100
CDKL1 (Homo sapiens, UniProt Q00532)	100
PRKG1 (Homo sapiens, UniProt Q13976)	99
DCLK3 (Homo sapiens, UniProt Q9C098)	100
AKT1 (Homo sapiens, UniProt P31749)	93
YES1 (Homo sapiens, UniProt P07947)	100

Sample 2
Cell line: mouse MPNST tumor cells
Technique: high-content nuclear imaging
Measured: cell number
Tested at: 10 µM
Time: 12 h
Setting: mean of 2 replicates
Baseline: plate mean
Direction: higher = more cells
SMILES	nuclei count
Cn1ccc2cc3c(cc21)CCN3C(=O)Nc1cccnc1	1.28 z-score
COc1ccc(N2CCN(C(=O)c3cc4c(s3)-c3ccccc3S(=O)(=O)C4)CC2)cc1	2.38 z-score
C/C(O)=C(\C#N)C(=O)Nc1ccc(C(F)(F)F)cc1	0.364 z-score and -0.648 z-score
CC(=O)O[C@]1(C(C)=O)CC[C@H]2[C@@H]3CCC4=CC(=O)CCC4=C3[C@@H](c3ccc(N(C)C)cc3)C[C@@]21C	4.27 z-score
Cc1c2ccccc2c(CSC(=N)N)c2ccccc12	-6.34 z-score
CC(=O)N[C@@H](CC(C)C)C(=O)O	1.53 z-score

Sample 3
Organism: Plasmodium berghei
Mode: inhibitor
Cells: Huh-7
Strain: GFP-expressing, liver stage
Tested at: 10 µM
Time: 24 h
Baseline: untreated control
SMILES	infection rate [%]
Cc1ccc(C(=O)c2ccc(CC(=O)O)n2C)cc1	119
CCCCC1C(=O)N(c2ccccc2)N(c2ccc(O)cc2)C1=O (centres unmarked)	80.1
S=P(N1CC1)(N1CC1)N1CC1	88.4
CN[C@@H]1[C@H](O[C@H]2[C@H](O[C@H]3[C@H](O)[C@@H](O)[C@H](N=C(N)N)[C@@H](O)[C@@H]3N=C(N)N)O[C@@H](C)[C@]2(O)C=O)O[C@@H](CO)[C@H](O)[C@H]1O	109
CCCN(CCC)CCc1cccc2c1CC(=O)N2	109

Sample 4
Structure (SMILES): c1ccc2c(-c3ccncc3)c[nH]c2c1
Read-out: enzyme activity
Mode: inhibitor
Tested at: 0.5 µM
Baseline: control
target	remaining activity [%]
MAPK1 (Homo sapiens, UniProt P28482)	100
MINK1 (Homo sapiens, UniProt Q8N4C8)	84.6
MET (Homo sapiens, UniProt P08581)	91.4
TLK2 (Homo sapiens, UniProt Q86UE8)	95.8
CLK4 (Homo sapiens, UniProt Q9HAZ1)	101
AKT2 (Homo sapiens, UniProt P31751)	96.4
Myosin-IIIb (MYO3B, Homo sapiens, UniProt Q8WXR4)	96.4
MAP2K1 (Homo sapiens, UniProt Q02750)	96.5
MARK4 (Homo sapiens, UniProt Q96L34)	94.7
DCLK2 (Homo sapiens, UniProt Q8N568)	98.1
DDR2 (Homo sapiens, UniProt Q16832)	92.6
TXK (Homo sapiens, UniProt P42681)	104
MAPK11 (Homo sapiens, UniProt Q15759)	112
CDC42BPB (Homo sapiens, UniProt Q9Y5S2)	104

For quick reference, copied from above (sample 2):
SMILES	nuclei count
Cc1c2ccccc2c(CSC(=N)N)c2ccccc12	-6.34 z-score
CC(=O)N[C@@H](CC(C)C)C(=O)O	1.53 z-score
CC(=O)O[C@]1(C(C)=O)CC[C@H]2[C@@H]3CCC4=CC(=O)CCC4=C3[C@@H](c3ccc(N(C)C)cc3)C[C@@]21C	4.27 z-score
